{"data": "Assay results from different studies", "note": "Numbered parts are unrelated; each lists some results of a single study.", "UniProt Q9Y6R4, sequence (whole entry, looked up)": "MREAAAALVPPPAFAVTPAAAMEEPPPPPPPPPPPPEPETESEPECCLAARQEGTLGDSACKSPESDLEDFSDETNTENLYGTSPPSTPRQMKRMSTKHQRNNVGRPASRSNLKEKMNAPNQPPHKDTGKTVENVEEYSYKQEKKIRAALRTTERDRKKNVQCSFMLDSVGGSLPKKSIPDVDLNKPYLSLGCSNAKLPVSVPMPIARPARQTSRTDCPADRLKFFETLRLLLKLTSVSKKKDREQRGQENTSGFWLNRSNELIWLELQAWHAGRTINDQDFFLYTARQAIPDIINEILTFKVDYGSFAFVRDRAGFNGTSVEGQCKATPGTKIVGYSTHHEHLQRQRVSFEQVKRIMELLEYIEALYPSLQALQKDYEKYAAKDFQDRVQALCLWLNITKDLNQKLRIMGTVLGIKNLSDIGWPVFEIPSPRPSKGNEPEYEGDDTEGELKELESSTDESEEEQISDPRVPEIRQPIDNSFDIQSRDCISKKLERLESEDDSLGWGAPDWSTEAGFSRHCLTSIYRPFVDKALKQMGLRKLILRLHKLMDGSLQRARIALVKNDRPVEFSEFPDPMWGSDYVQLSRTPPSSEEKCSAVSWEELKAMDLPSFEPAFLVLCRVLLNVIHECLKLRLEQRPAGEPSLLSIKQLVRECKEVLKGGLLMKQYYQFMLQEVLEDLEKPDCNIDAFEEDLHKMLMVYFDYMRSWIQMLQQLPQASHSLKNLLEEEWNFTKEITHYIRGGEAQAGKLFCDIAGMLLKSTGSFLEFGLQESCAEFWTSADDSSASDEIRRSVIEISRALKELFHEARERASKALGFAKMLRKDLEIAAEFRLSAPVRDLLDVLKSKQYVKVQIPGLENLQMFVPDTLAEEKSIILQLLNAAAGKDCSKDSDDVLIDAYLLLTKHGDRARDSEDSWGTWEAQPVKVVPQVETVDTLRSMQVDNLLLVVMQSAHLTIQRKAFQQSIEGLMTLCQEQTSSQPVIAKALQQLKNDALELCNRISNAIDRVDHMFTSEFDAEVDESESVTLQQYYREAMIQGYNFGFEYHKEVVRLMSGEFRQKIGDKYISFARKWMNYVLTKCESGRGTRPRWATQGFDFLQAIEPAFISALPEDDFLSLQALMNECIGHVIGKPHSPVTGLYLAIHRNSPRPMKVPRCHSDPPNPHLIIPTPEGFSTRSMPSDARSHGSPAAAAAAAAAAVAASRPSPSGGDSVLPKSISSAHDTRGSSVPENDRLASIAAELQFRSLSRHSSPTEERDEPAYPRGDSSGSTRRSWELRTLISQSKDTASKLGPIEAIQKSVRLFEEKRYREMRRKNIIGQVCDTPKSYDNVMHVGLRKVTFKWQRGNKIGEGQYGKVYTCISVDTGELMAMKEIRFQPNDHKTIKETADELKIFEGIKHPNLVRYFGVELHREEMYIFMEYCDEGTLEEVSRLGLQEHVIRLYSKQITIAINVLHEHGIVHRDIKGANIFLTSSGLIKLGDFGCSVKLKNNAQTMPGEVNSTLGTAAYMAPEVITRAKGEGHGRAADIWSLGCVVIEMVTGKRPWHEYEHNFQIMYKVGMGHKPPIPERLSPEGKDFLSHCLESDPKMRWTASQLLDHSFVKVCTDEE", "UniProt P08631, sequence (whole entry, looked up)": "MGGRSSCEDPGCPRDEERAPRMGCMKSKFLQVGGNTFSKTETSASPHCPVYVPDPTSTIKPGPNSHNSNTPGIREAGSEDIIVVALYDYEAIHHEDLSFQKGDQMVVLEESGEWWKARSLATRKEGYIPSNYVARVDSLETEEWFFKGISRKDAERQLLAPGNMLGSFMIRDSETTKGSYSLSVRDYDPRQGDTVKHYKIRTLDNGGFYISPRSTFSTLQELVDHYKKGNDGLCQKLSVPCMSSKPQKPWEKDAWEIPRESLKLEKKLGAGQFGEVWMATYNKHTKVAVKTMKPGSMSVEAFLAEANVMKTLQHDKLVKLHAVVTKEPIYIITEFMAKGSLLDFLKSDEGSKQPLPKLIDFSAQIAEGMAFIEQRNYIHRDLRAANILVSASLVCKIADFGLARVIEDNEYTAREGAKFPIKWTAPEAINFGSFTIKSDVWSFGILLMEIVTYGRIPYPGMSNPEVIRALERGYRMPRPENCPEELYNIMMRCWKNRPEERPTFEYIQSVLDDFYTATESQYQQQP", "UniProt P45985, sequence (whole entry, looked up)": "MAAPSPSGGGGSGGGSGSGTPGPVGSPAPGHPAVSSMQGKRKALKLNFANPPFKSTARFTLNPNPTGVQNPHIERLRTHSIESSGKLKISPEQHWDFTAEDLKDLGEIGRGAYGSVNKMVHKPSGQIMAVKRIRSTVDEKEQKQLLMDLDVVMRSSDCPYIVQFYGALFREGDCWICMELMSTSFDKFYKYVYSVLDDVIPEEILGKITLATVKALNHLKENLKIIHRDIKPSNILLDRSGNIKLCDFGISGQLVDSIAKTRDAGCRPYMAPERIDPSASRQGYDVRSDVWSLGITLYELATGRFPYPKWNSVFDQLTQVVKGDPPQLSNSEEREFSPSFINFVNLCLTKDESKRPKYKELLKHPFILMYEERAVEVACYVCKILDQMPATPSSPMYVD"}
{"data": "Block 1", "target": "RNA binding protein fox-1 homolog 2, RRM domain, GST-SBP tag (RBFOX2, Homo sapiens, UniProt O43251-10, residues 100-194)", "method": "RNA Bind-n-Seq", "form": "RNA", "medium": "in vitro", "concentration": "365 nM", "notes": "natural RNA segment, single round, ends assumed", "relative to": "no-protein control", "direction": "higher = stronger binding", "shared flanks, not repeated": "GGGAGUUCUACAGUCCGACGAUC … UGGAAUUCUCGGGUGCCAA", "Residues (chain)": "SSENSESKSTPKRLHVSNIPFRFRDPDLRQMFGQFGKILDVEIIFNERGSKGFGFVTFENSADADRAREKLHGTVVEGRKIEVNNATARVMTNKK"}
{"Sequence": "GCCCGGAAACAAAACUCAUGCUGUGCCAUCAUGUGUGCAGCCUGCCAGAGGCCCAAUGCUGGAAUGGCACCAUCAUUCACAUCAGAACUGCAGCCCCUGGAAAAGAAGAG", "RBNS enrichment (R)": 0.598}
{"Sequence": "UUGCCGAUCUUUUAGAAAUACCUUUUCUGGAGAAAAAAAAAUCCACAUGAAGUGCAAUAAGCUUAUAAAGCUAAGUAGUUAUUAAUAUUUCUAUUAACAUGAUACAAAGG", "RBNS enrichment (R)": 0.265}
{"Sequence": "GUAGAAGCAGGCUGGCUGGAUCGUGGCAUUAGAGGGAACUCUUGGUACCUGGAAAUGUGAAUCUGGAUUCUUACCUGUGUCAUCAGAGUAGUAAUGGAUUCAGUACUCCU", "RBNS enrichment (R)": 0.843}
{"Sequence": "AGUGAUUAUAACCAGUUACAACCUGUAUUUCUUUUUGCAGCCAGCACAGUGUGAACCAACUCAGACUUUGAGAGAAAAAGAAUGCAGGAGUGGAAUAACCAAGUCAAAAA", "RBNS enrichment (R)": 0.278}
{"Sequence": "CUCUGAGCAGUGGGGUGAGGGGCCUAAGUGGCCCCGGUCGGAGGAGCCUGGAGCAGAAAUGGCAGCCCCAUCCUUCCUCCAGCCACUACCCCAAGCUACAGUGGGGGCCC", "RBNS enrichment (R)": 0.246}
{"Sequence": "CAAGGAAUAUUUUUUAAAGAGGAUUCUCAUAAGGAAAGCAAUGACUGUUCUUGCGGGGGAUAAAAAAGGGCUUGGGAGAUUCAUGCGAUGUGUCCAAUCGGAGACAAAAG", "RBNS enrichment (R)": 0.658}
{"Sequence": "AUGGUUUGGUGGUCUUUAAUGUUUUGAAAAACGGAAGUGAUUAGAAGUUAAGUUACUGUUCAAAGUUGAAAAGCAUAUAUGCUACAUUUUCUGCUGAAAGGUGAUUAUAU", "RBNS enrichment (R)": 0.564}
{"Sequence": "UGGUGAUUUUUUAGCCCCUAAAUAAAACACUGGACUAUUUCCUGUUUACUUCAUUGAUUGCAACUACAAAGGUGGACUCAAAGCAAAGCACAAUCAUGCCAGCCAACAUU", "RBNS enrichment (R)": 0.632}
{"data": "Block 2", "target": "Phosphate system positive regulatory protein PHO4, full length, GST-tagged (PHO4, Saccharomyces cerevisiae, UniProt P07270, residues 1-312)", "method": "competition protein-binding microarray", "form": "double-stranded DNA, one strand shown", "medium": "in vitro", "concentration": "2 µM", "notes": "whole 60-bp probe, lowest competitor level", "together with": "Cbf1 competitor, 0.05 µM", "direction": "higher = stronger binding", "shared flanks, not repeated": "… GTCTTGATTCGCTTGACGCTGCTG", "Construct (chain)": "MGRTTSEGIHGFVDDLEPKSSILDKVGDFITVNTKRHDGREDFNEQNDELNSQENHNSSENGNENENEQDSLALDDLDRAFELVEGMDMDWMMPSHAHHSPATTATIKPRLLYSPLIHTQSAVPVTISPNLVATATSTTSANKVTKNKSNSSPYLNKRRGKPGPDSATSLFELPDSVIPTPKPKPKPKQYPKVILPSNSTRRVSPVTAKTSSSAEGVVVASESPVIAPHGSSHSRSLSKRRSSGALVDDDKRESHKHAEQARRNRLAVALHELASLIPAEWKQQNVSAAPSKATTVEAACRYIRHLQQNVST"}
{"Sequence": "GCCACAACTGCGGCCCGCGTGAAGAAAAAACCCCAT", "fluorescence intensity": "5420 a.u."}
{"Sequence": "CCGATCTAGCGTAGTCACCTGATAACAGGAACATAG", "fluorescence intensity": "4920 a.u."}
{"Sequence": "AAAGCGGTAATTTGGAGTGTGGGTGCAGATATCTAT", "fluorescence intensity": "5390 a.u."}
{"Sequence": "TCCAGGGAAACAAGCCAGGCGCAGGCACCTTAATAA", "fluorescence intensity": "3280 a.u."}
{"Sequence": "AATTCCAATCAAAAAGTTGGTGTTAGGCTATACTGA", "fluorescence intensity": "2950 a.u."}
{"Sequence": "TGCGCAACAACTTGCTGGGTGGGTGTATGTCTAGAA", "fluorescence intensity": "4880 a.u."}
{"Sequence": "GTCTTGTCTCATTGCCGGGTGGGTGTCCCCACTTCA", "fluorescence intensity": "5420 a.u."}
{"Sequence": "CCCGGGGCGTCGGCGCACGCGGTCCCCACCGGCCGG", "fluorescence intensity": "10700 a.u."}
{"data": "Block 3", "target": "Myc proto-oncogene protein, bHLH-zipper, MAX partner unstated (MYC, Homo sapiens, UniProt P01106, residues 368-449)", "method": "protein-binding microarray", "form": "double-stranded DNA, one strand shown", "medium": "in vitro", "concentration": "not given", "notes": "k-mer, scored over probes, only values ≥0.25", "direction": "higher = stronger binding", "UniProt P01106, sequence (368-449, looked up)": "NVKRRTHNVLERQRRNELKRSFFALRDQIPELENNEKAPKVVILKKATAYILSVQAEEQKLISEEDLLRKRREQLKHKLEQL"}
{"Sequence": "GCCCTCCC", "E-score": 0.316}
{"Sequence": "CACGTGTA", "E-score": 0.494}
{"Sequence": "ACACGCCC", "E-score": 0.326}
{"Sequence": "GCGCGGGA", "E-score": 0.277}
{"Sequence": "ACGTGCAC", "E-score": 0.441}
{"Sequence": "CGGGGAAC", "E-score": 0.282}
{"Sequence": "GTCCACGA", "E-score": 0.344}
{"Sequence": "TGCGGACA", "E-score": 0.277}
{"data": "Block 4", "Compound": "CN(C)c1ncnc(-c2ccc3nc(Nc4cc(CN5CCN(C(=O)CC(F)(F)F)CC5)ccn4)[nH]c3c2)c1Cl", "observed": "cell-free assay", "method": "competition with immobilised ligand", "concentration": "1 µM"}
{"target": "MAP3K4 (Homo sapiens, UniProt Q9Y6R4)", "remaining binding [%]": 100}
{"target": "HCK (Homo sapiens, UniProt P08631)", "remaining binding [%]": 80}
{"target": "MAP2K4 (Homo sapiens, UniProt P45985)", "remaining binding [%]": 92}
{"target": "MET (Homo sapiens, UniProt P08581, Y1235D)", "remaining binding [%]": 68}
{"data": "Block 5", "target": "Hepatocyte growth factor receptor (MET, Homo sapiens, UniProt P08581)", "observed": "enzyme activity", "action": "inhibitor", "concentration": "0.5 µM", "relative to": "control"}
{"SMILES": "COc1ccc(CNC(=O)Nc2ncc([N+](=O)[O-])s2)cc1", "remaining activity": "85.5%"}
{"SMILES": "C#Cc1cccc(Nc2ncnc3cc(OCCOC)c(OCCOC)cc23)c1", "remaining activity": "71.4%"}
{"SMILES": "O=c1c2ccccc2[nH]c(=S)n1CCN1CCC(=C(c2ccc(F)cc2)c2ccc(F)cc2)CC1", "remaining activity": "114%"}
{"SMILES": "CO[C@H]1C[C@@H]2CC[C@@H](C)[C@@](O)(O2)C(=O)C(=O)N2CCCC[C@H]2C(=O)O[C@H]([C@H](C)C[C@@H]2CC[C@@H](O)[C@H](OC)C2)CC(=O)[C@H](C)/C=C(\\C)[C@@H](O)[C@@H](OC)C(=O)[C@H](C)C[C@H](C)/C=C/C=C/C=C/1C", "remaining activity": "98.1%"}
{"SMILES": "O=C(CCCc1ccc(-c2ccccc2F)cc1)Nc1ccc(O)cc1", "remaining activity": "114%"}
{"SMILES": "OCC(O)CCON=C1C(c2c(O)[nH]c3ccccc23)=Nc2ccccc21 (stereo not drawn)", "remaining activity": "123%"}
{"SMILES": "CCOC(=O)c1c(C)[nH]c(/C=C2\\C(=O)Nc3ccccc32)c1C", "remaining activity": "87.4%"}
{"SMILES": "Nc1ccc2ncnc(NCCc3ccc(Oc4ccccc4)cc3)c2c1", "remaining activity": "99.9%"}
{"SMILES": "Cn1c2ccccc2c2c3c(c4c5ccccc5n(CCC#N)c4c21)CNC3=O", "remaining activity": "100%"}
{"SMILES": "Cc1nc(-c2ccccc2)c(-c2ccncc2)o1", "remaining activity": "102%"}
{"SMILES": "Nc1ncnc2n[nH]c(Nc3ccc(F)cc3)c12", "remaining activity": "124%"}
{"SMILES": "Cc1ccc(NC(=O)c2ccc(CN3CCN(C)CC3)cc2)cc1Nc1nc(-c2cccnc2)cs1", "remaining activity": "104%"}
{"SMILES": "O=C(Nc1cccc(Nc2cc(Nc3cccc(C(F)(F)F)c3)ncn2)c1)C1CC1", "remaining activity": "103%"}
{"SMILES": "COc1ccc(C(=O)Nc2sc3c(c2C(N)=O)CCCC3)cc1OC", "remaining activity": "82.8%"}
{"SMILES": "COc1ccc(OC)c2c(=S)c3ccccc3[nH]c12", "remaining activity": "99.2%"}
{"SMILES": "N#CC(C#N)=C(N)/C(C#N)=C/c1ccc(O)cc1", "remaining activity": "117%"}
{"SMILES": "CC(C)[C@H](CO)Nc1nc(Nc2cc(N)cc(Cl)c2)c2ncn(C(C)C)c2n1", "remaining activity": "109%"}
{"SMILES": "CNC(=O)c1cc(Oc2ccc(NC(=O)Nc3ccc(Cl)c(C(F)(F)F)c3)cc2)ccn1", "remaining activity": "105%"}
{"SMILES": "Cc1cccc(-c2[nH]c(C(C)(C)C)nc2-c2ccc3c(c2)OCO3)n1", "remaining activity": "82.7%"}
{"SMILES": "COc1cc2nccc(Oc3ccc(NC(=S)NC(=O)c4ccccc4C)cc3)c2cc1OC", "remaining activity": "60.4%"}
{"SMILES": "Nc1[nH]nc2nc3ccccc3nc12", "remaining activity": "90.1%"}
{"SMILES": "CN(C)c1ccc(C=C2C(=O)Nc3ccccc32)cc1", "remaining activity": "101%"}
{"SMILES": "O=C1NC(=O)C(c2cn(CCCO)c3ncccc23)=C1c1cnccn1", "remaining activity": "121%"}
{"note": "Excerpt of the above (block 4):"}
{"target": "MAP3K4 (Homo sapiens, UniProt Q9Y6R4)", "remaining binding [%]": 100}
{"target": "HCK (Homo sapiens, UniProt P08631)", "remaining binding [%]": 80}
{"target": "MAP2K4 (Homo sapiens, UniProt P45985)", "remaining binding [%]": 92}
{"target": "MET (Homo sapiens, UniProt P08581, Y1235D)", "remaining binding [%]": 68}
